Assay results collected from several papers.
Protocols differ between the studies behind these lines.
Organism: Bacillus subtilis

SMILES | technique | strain | matrix | time | temperature | with | MIC
CN[C@@H]1[C@H](O)[C@H](NC)[C@H]2O[C@]3(O)[C@H](O[C@@H]2[C@H]1O)O[C@H](C)C[C@]3(O)CNCc1ccc(OC(F)(F)F)cc1 |  | ATCC 23857 |  |  |  |  | 100 to 200 µg/mL
CC(C)C[C@@H]1NC(=O)[C@H](CC(C)C)NC(=O)[C@H](CCCCN)NC(=O)CSC[C@@H](C(=O)N[C@@H](CCCCN)C(N)=O)NC(=O)[C@H](CCCCN)NC(=O)[C@H](CC(C)C)NC(=O)[C@H](CCCCN)NC(=O)[C@@H]2CSCC(=O)N[C@@H](CCCCN)C(=O)N[C@@H](CC(C)C)C(=O)N[C@@H](CC(C)C)C(=O)N[C@@H](CCCCNC1=O)C(=O)N[C@@H](CCCCN)C(=O)N[C@@H](CC(C)C)C(=O)N[C@@H](CC(C)C)C(=O)N2 |  | BR 151 |  | 18 h |  |  | 1 µg/mL
N=C(N)NCCC[C@@H]1NC(=O)[C@H](CCCNC(=N)N)NC(=O)[C@H](CCCNC(=N)N)NC(=O)[C@H](CCCNC(=N)N)NC(=O)[C@H](Cc2c[nH]c3ccccc23)NC(=O)[C@H](CCCNC(=N)N)NC(=O)[C@H](CCCNC(=N)N)NC(=O)[C@@H](N)CCCn2cc(nn2)C[C@@H](C(N)=O)NC1=O |  | CMCC 63501 |  | 24 h | 37 °C |  | 31.2 µg/mL
CC[C@H](C)[C@H](NC(=O)[C@H](CCCCNC(=N)N)NC(=O)[C@H](CC(N)=O)NC(=O)[C@H](CC(C)C)NC(=O)[C@H](Cc1ccccc1)NC(=O)[C@H](CCCCNC(=N)N)NC(=O)[C@H](CCCCNC(=N)N)NC(=O)[C@H](CC(C)C)NC(=O)[C@H](CC(C)C)NC(=O)[C@H](CCCCNC(=N)N)NC(=O)[C@H](CCCCNC(=N)N)NC(=O)[C@H](CC(C)C)NC(=O)CNC(C)=O)C(=O)N[C@@H](CCCCNC(=N)N)C(=O)N[C@@H](CCCCNC(=N)N)C(N)=O | broth microdilution | ATCC 6633 |  |  |  |  | 3.12 µM
CC(C)C[C@H](NC(=O)[C@@H]1CSCC(=O)N[C@@H](CCCCN)C(=O)N[C@@H](CC(C)C)C(=O)N[C@@H](CC(C)C)C(=O)NCCCC[C@@H]2NC(=O)[C@H](CC(C)C)NC(=O)[C@H](CC(C)C)NC(=O)[C@H](CCCCN)NC(=O)CSC[C@H](NC(=O)[C@H](CC(C)C)NC(=O)[C@H](CC(C)C)NC(=O)[C@H](CCCCN)NC2=O)C(=O)N[C@@H](CCCCN)C(=O)N[C@@H](CCCCN)C(=O)N[C@@H](CCCCN)C(=O)N1)C(N)=O |  | BR 151 |  | 18 h |  |  | 2 µg/mL
CN1C(=O)[C@@H]2NC(=O)[C@@H]3NC(=O)[C@@H](c4ccc(O)cc4)NC(=O)[C@H](NC(=O)C(NCc4cc(F)cc(F)c4F)c4ccc(O)cc4)Cc4c[nH]c5cc(ccc45)-c4cc3cc(c4O)Oc3ccc(cc3)C[C@H]1C(=O)N[C@@H](C(=O)O)c1ccc(O)c(c1)Oc1ccc2cc1 (stereo partly shown) |  | 168 | Mueller-Hinton broth |  |  |  | 4 µg/mL
CC[C@H](C)[C@H](NC(=O)[C@H](CCCN)NC(=O)[C@H](CC(N)=O)NC(=O)[C@H](CC(C)C)NC(=O)[C@H](Cc1ccccc1)NC(=O)[C@H](CCCN)NC(=O)[C@H](CCCCNC(=N)N)NC(=O)[C@H](CC(C)C)NC(=O)[C@H](CC(C)C)NC(=O)[C@H](CCCN)NC(=O)[C@H](CCCCNC(=N)N)NC(=O)[C@H](CC(C)C)NC(=O)CNC(C)=O)C(=O)N[C@@H](CCCN)C(=O)N[C@@H](CCCCNC(=N)N)C(N)=O | broth microdilution | ATCC 6633 |  |  |  |  | 3.12 µM
CC[C@H](C)[C@H](NC(=O)[C@@H](Cc1ccccc1)NC)C(=O)OC[C@H](N)C(=O)N[C@H](CCC(N)=O)C(=O)N[C@@H](C(=O)N[C@H](C(=O)OC[C@H](N)C(=O)N[C@H]1C(=O)N[C@@H](C)C(=O)N[C@@H](C2CCCCC2)C(=O)N[C@@H]([C@@H](C)CC)C(=O)O[C@H]1C)[C@@H](C)CC)[C@@H](C)CC | broth microdilution | ATCC 6051 | Mueller-Hinton broth | 16 h | 37 °C |  | 0.125 µg/mL
CC[C@H](C)[C@H](NC(=O)[C@H](CCCCN)NC(=O)[C@@H]1CCCN1C(=O)[C@@H](NC(=O)[C@H](CC(C)C)NC(=O)[C@H](CCCCN)NC(=O)[C@H](CC(C)C)NC(=O)[C@@H](NC(=O)[C@H](CO)NC(=O)CNC(=O)[C@H](Cc1ccccc1)NC(=O)[C@@H](N)Cc1ccccc1)C(C)C)[C@@H](C)CC)C(=O)N[C@@H](CC(C)C)C(N)=O | broth microdilution |  |  |  |  |  | 6.25 µM
CC(C)C[C@@H]1NC(=O)CSC[C@@H](C(=O)N[C@@H](CCCCN)C(N)=O)NC(=O)[C@H](CC(C)C)NC(=O)[C@H](CCCCN)NC(=O)[C@H](CCCCN)NC(=O)[C@@H]2CSCC(=O)N[C@@H](CC(C)C)C(=O)N[C@@H](CC(C)C)C(=O)N[C@@H](CCCCNC(=O)[C@H](CC(C)C)NC1=O)C(=O)N[C@@H](CCCCN)C(=O)N[C@@H](CC(C)C)C(=O)N[C@@H](CCCCN)C(=O)N2 |  | BR 151 |  | 18 h |  |  | 16 µg/mL
CC[C@H](C)[C@H](N)C1=N[C@H](C(=O)N[C@@H](CC(C)C)C(=O)N[C@H](CCC(=O)O)C(=O)N[C@@H](Cc2ccccc2)C(=O)N[C@H]2CCCCNC(=O)[C@H](CC(N)=O)NC(=O)[C@@H](CC(=O)O)NC(=O)[C@H](Cc3c[nH]cn3)NC(=O)[C@@H](Cc3ccccc3)NC(=O)[C@H]([C@@H](C)CC)NC(=O)[C@@H](CCCN)NC2=O)CS1 |  | 168 |  | 18 h | 37 °C | ZnSO4 0.3 mM | 64 µg/mL
CC[C@H](C)[C@H](NC(=O)[C@@H](NC(=O)[C@H](CCCCN)NC(=O)CNC(=O)[C@@H](NC(=O)[C@@H](NC(=O)[C@H](CO)NC(=O)[C@@H](NC(=O)[C@@H](NC(=O)[C@@H]1CCCN1C(=O)[C@@H](NC(=O)[C@@H](NC(=O)CN)[C@@H](C)CC)[C@@H](C)CC)[C@@H](C)CC)[C@@H](C)CC)[C@@H](C)CC)[C@@H](C)CC)[C@@H](C)CC)C(N)=O | broth microdilution |  |  |  |  |  | > 30 µM
CC[C@H](C)[C@H](NC(=O)CNC(=O)[C@H](CCCCN)NC(=O)[C@H](C)NC(=O)[C@H](CCC(=O)O)NC(=O)[C@H](Cc1ccccc1)NC(=O)[C@H](CO)NC(=O)[C@H](CC(C)C)NC(=O)[C@@H](NC(=O)[C@H](CC(=O)O)NC(=O)[C@H](C)NC(=O)[C@@H](NC(=O)[C@@H](N)C(C)C)[C@@H](C)O)C(C)C)C(=O)N[C@@H](C)C(=O)N[C@H](C(=O)N[C@@H](CC(N)=O)C(=O)N[C@@H](Cc1c[nH]cn1)C(=O)N[C@@H](CO)C(=O)N[C@@H](C)C(=O)N[C@H]1CSSC[C@@H]2NC(=O)[C@H](C(C)C)NC(=O)CNC(=O)[C@H](CC(N)=O)NC(=O)[C@H](CCC(N)=O)NC(=O)[C@H](C)NC(=O)[C@H](CO)NC(=O)CNC(=O)CNC(=O)[C@H](CCCCN)NC(=O)[C@H](CCCCN)NC(=O)[C@H](CCCNC(=N)N)NC(=O)[C@H](CC(C)C)NC(=O)[C@H](C)NC(=O)[C@H]([C@@H](C)CC)NC(=O)[C@H](CSSC[C@@H](C(=O)N[C@@H](CCCNC(=N)N)C(=O)N[C@@H](CC(N)=O)C(=O)O)NC(=O)[C@H](C(C)C)NC2=O)NC(=O)[C@H](Cc2c[nH]cn2)NC(=O)[C@H](CC(C)C)NC(=O)[C@H](C)NC1=O)C(C)C | broth microdilution | KCTC 3068 |  | 16 h | 37 °C |  | > 100 µM
CC(C)C[C@H](NC(=O)[C@@H]1CSCC(=O)N[C@H]2CCCCNC(=O)CSC[C@H](NC(=O)[C@H](CCCCN)NC2=O)C(=O)N[C@@H](CCCCN)C(=O)N[C@@H](CC(C)C)C(=O)N1)C(N)=O |  | BR 151 |  | 18 h |  |  | > 256 µg/mL
CC[C@H](C)[C@H](NC(=O)[C@H](NC(=O)[C@@H](CCC(N)=O)NC(=O)[C@@H](N)COC(=O)[C@@H](NC(=O)[C@@H](Cc1ccccc1)NC)[C@@H](C)CC)[C@@H](C)CC)C(=O)N[C@@H](CO)C(=O)N[C@H]1C(=O)N[C@@H](C)C(=O)N[C@@H](C2CCCCC2)C(=O)N[C@@H]([C@@H](C)CC)C(=O)O[C@H]1C | broth microdilution | ATCC 6051 | Mueller-Hinton broth | 16 h | 37 °C |  | 0.0625 µg/mL
CN1C(=O)[C@@H]2NC(=O)[C@@H]3NC(=O)[C@@H](c4ccc(O)cc4)NC(=O)[C@H](NC(=O)C(NCc4ccsc4)c4ccc(O)cc4)Cc4c[nH]c5cc(ccc45)-c4cc3cc(c4O)Oc3ccc(cc3)C[C@H]1C(=O)N[C@@H](C(=O)O)c1ccc(O)c(c1)Oc1ccc2cc1 (stereo partly shown) |  | 168 | Mueller-Hinton broth |  |  |  | 1 µg/mL
CCCCCCCCCCCC[S+]([O-])CC1OC(OC2C(N)CC(N)C(OC3OC(CN)C(O)CC3N)C2O)C(O)C(N)C1O (mixture of isomers) |  | 168 AAC(6')/APH(2'') plasmid |  |  |  |  | > 150 µg/mL
CC(C)C[C@H](NC(=O)[C@@H]1CSCC(=O)NCCCC[C@@H]2NC(=O)CSC[C@H](NC(=O)[C@H](CCCCN)NC2=O)C(=O)N[C@@H](CCCCN)C(=O)N[C@@H](CC(C)C)C(=O)N1)C(N)=O |  | BR 151 |  | 18 h |  |  | 128 µg/mL
CN1C(=O)[C@@H]2NC(=O)[C@@H]3NC(=O)[C@@H](c4ccc(O)cc4)NC(=O)[C@H](NC(=O)C(N)c4ccc(O)cc4)Cc4c[nH]c5cc(ccc45)-c4cc3cc(c4O)Oc3ccc(cc3)C[C@H]1C(=O)N[C@@H](C(=O)NCCC[N+](C)(C)C)c1ccc(O)c(c1)Oc1ccc2cc1 (stereo partly shown) |  | 168 | Mueller-Hinton broth |  |  |  | 4 µg/mL

Excerpt of the above:
SMILES | technique | strain | matrix | time | temperature | with | MIC
CC(C)C[C@H](NC(=O)[C@@H]1CSCC(=O)N[C@@H](CCCCN)C(=O)N[C@@H](CC(C)C)C(=O)N[C@@H](CC(C)C)C(=O)NCCCC[C@@H]2NC(=O)[C@H](CC(C)C)NC(=O)[C@H](CC(C)C)NC(=O)[C@H](CCCCN)NC(=O)CSC[C@H](NC(=O)[C@H](CC(C)C)NC(=O)[C@H](CC(C)C)NC(=O)[C@H](CCCCN)NC2=O)C(=O)N[C@@H](CCCCN)C(=O)N[C@@H](CCCCN)C(=O)N[C@@H](CCCCN)C(=O)N1)C(N)=O |  | BR 151 |  | 18 h |  |  | 2 µg/mL
CN1C(=O)[C@@H]2NC(=O)[C@@H]3NC(=O)[C@@H](c4ccc(O)cc4)NC(=O)[C@H](NC(=O)C(NCc4cc(F)cc(F)c4F)c4ccc(O)cc4)Cc4c[nH]c5cc(ccc45)-c4cc3cc(c4O)Oc3ccc(cc3)C[C@H]1C(=O)N[C@@H](C(=O)O)c1ccc(O)c(c1)Oc1ccc2cc1 (stereo partly shown) |  | 168 | Mueller-Hinton broth |  |  |  | 4 µg/mL
